Results gathered from unrelated publications.
Protocols differ between the studies behind these lines.

[O-][S+]1CCc2nc(N3CCC(c4ncc(Cl)cn4)CC3)nc(NC3(CO)CCC3)c21 (centres unmarked) — Cmax at steady state (human, plasma; oral, 6 mg twice daily, fed, geometric mean): 164 nM
CC[C@@]1(O)C(=O)OCc2c1cc1n(c2=O)Cc2cc3c(CN(C)C)c(O)ccc3nc2-1 — Cmax ratio (human patients, plasma; oral, 8 mg weekly, MTD arm, weekly dosing, with: pazopanib; reference: with pazopanib over alone): 1.89
CCCCCOc1ccc(-c2ccc(-c3ccc(C(=O)N[C@H]4C[C@@H](O)[C@@H](O)NC(=O)[C@@H]5[C@@H](O)[C@@H](C)CN5C(=O)[C@H]([C@@H](C)O)NC(=O)[C@H]([C@H](O)[C@@H](O)c5ccc(O)cc5)NC(=O)[C@@H]5C[C@@H](O)CN5C(=O)[C@H]([C@@H](C)O)NC4=O)cc3)cc2)cc1 — Cmax at steady state (human, plasma; intravenous, 1.5 mg/kg/day maintenance, 18 h post dose): 3300 ng/mL
C=C1C[C@H]2[C@@H]3CC[C@H](O)[C@@]3(C)CC[C@@H]2[C@@]2(C)C=CC(=O)C=C12 — Cmax ratio (measured: conjugated compound; human, plasma; reference: UGT2B17 *1/*1 over *2/*2): ~8 fold
N#Cc1ccc(N2N=C3c4ccc(C(=O)N5CCC(O)CC5)nc4CC[C@@H]3[C@@H]2C2CCCC2)cc1Cl — Cmax ratio (human, plasma; with: itraconazole; reference: with itraconazole over alone): ~1.1 fold
COc1cc2c(c(OC)c1OC)-c1ccc(OC)c(=O)cc1[C@@H](NC(C)=O)CC2 — Cmax ratio (human, male, plasma; oral, 10 mg, with: allopurinol 300 mg; reference: combination over alone): 110%
COc1ccsc1CNCC[C@@]1(c2ccccn2)CCOC2(CCCC2)C1 — Cmax ratio (human, severe hepatic impairment; intravenous, dose-normalised; reference: normal hepatic function): 24%
Cn1cc(C2=C(c3cn(C4CCN(Cc5ccccn5)CC4)c4ccccc34)C(=O)NC2=O)c2ccccc21 — Cmax at steady state (human, cancer patients, plasma; oral, 250 mg once daily, cycle 1 day 22, with: erlotinib 150 mg daily): 618 nM

For quick reference, copied from above:
Cn1cc(C2=C(c3cn(C4CCN(Cc5ccccn5)CC4)c4ccccc34)C(=O)NC2=O)c2ccccc21 — Cmax at steady state (human, cancer patients, plasma; oral, 250 mg once daily, cycle 1 day 22, with: erlotinib 150 mg daily): 618 nM
